Results from different studies.
A part holds a random share of what one study measured. Substitutions count along the parent as printed.

Study 1 — technique: protein binding microarray; form: double-stranded DNA, one strand shown; sample: in vitro; concentration: not given; reference: not given; reading: higher = stronger binding
Target: Histone acetyltransferase KAT6A, winged helix 1, GST fusion (KAT6A, Homo sapiens, UniProt Q92794, residues 1-85)
Notes: 8-mer, flanks averaged, mean of 2 arrays, mostly near background
Residues (chain): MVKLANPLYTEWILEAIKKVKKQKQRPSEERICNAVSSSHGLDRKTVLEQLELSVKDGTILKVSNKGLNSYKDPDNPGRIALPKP
Strand	E-score
GGTTTGCA	0.0234
CCTACTAC	0.0753
AACGAACT	-0.144
CAGCTAGC	0.0152
CCCGGCGA	0.35
AGGGCGAG	-0.0359
AGTTTAAT	-0.0758
ATTGAACC	-0.186
CGGTTACA	0.184
GTTCCCCA	-0.0916
CGCCTAGA	0.278
CATGCGTC	0.142
ATGTTGGG	-0.0933
CCAGGTAG	-0.0951

Study 2 — target: human cyclin A2; technique: competitive growth deep sequencing; form: peptide; organism: Saccharomyces cerevisiae; strain: cyclin A2-Cln2 fusion strain; notes: peptide tiling library; reading: direction not given
Molecule	enrichment score
NEGVSNAVRRSLYIRD	-0.263
DVSERGYVILPNDYFE	0.41
PHKTFRKLRLFDTPHT	-0.605
HPESPPRKRLKSKGSD	5.45
SNFFDVIKQLFSDEKN	-0.0489
NESHLDKEHDAVEVAD	0.311
VLPGGVPSPGASLTSM	0.0161
RQVRRDLFAF	-0.517
ESSQLTVQAEFDMSAI	0.486
AKRSLGFLPQPVPL	0.316
GTPKRCLDLSNLSSGE	0.148
KVRRNLFNQELLSP	1.97
KRCATPVIIDEILPSK	0.192
ATNSSHTDAHEILVSD	0.805

Study 3 — technique: RNA Bind-n-Seq; form: RNA; sample: in vitro; concentration: 365 nM; reference: no-protein control; reading: higher = stronger binding
Target: RNA binding protein fox-1 homolog 2, RRM domain, GST-SBP tag (RBFOX2, Homo sapiens, UniProt O43251-10, residues 100-194)
Notes: natural RNA segment, single round, ends assumed
Target sequence (chain): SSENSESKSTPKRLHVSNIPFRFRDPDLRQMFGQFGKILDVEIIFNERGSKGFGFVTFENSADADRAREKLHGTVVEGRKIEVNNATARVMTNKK
Strand	RBNS enrichment (R)
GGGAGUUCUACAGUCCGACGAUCAGGCUAUAACUUUGGAGUGAUAAGUCCUAUGGCUUUCUACAGUAGAGAACCACCCAAGGGUGUCGAUUAUAACAGAAUGUGGAGAGUGGGUGGCCGUCAUUGGGAAAGCAUGGAAUUCUCGGGUGCCAA	4.97
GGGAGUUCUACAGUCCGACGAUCCUUCAGGGAACAUGCCUGCAUUACAUGAAAUUCCAUGCGCCCAGCUGGUUAUUUCUUGUCUUCCAUCUUAGAAGAAUUGUGUUUCUUCAGGAUACUCUUGUACCUGUGGUUGGAAUUCUCGGGUGCCAA	0.301
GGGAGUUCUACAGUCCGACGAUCUUUGUUAAAUUACCAAGUUUGGUUUUUAAUAAUUUCUCAAUAUUAUGCGCCAAGAUCUAAUUUUAAAACUGUAUGAGGACUUUGUGCUGAAAAUAGAGUAUUUUUUUAAAUGGAAUUCUCGGGUGCCAA	0.626
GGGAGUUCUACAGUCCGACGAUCUCAGAUAUGUCCAGAGCAAAUUAGUCAUCCCCCGGUUGUGUUCAUAUUAACCACAAUCAUCUCUAGAGGAAAGAGUAUUACAACCCAGGCAUGAUCCUCUAUGGACACUAUGGAAUUCUCGGGUGCCAA	1.94
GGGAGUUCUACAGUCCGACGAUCAGGAUGUAUAAGGUGACGACACAAACCAAAUACCUUUCUUUCAUCACUUAACUAUACGUACUUUAUCUCUGGUAACACUAGAAUGCUGUGGUCUUGAGGGAAUGUUAGCAUGGAAUUCUCGGGUGCCAA	11.2
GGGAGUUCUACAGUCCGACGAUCAGUCUUACUUUAUCUUACUAUACUUCACAAAGGUUCUAAAAUGUGAAGAGUUUACUUGGAUUGCAGUAGCCCAUUGGUUGUUCAUAUAUUUAAAUAAAAUGGUCUACAAAUGGAAUUCUCGGGUGCCAA	0.583
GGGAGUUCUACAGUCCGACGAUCUUUGGUCCCUGACCUUAUGGCCAUCUUGGAGGUCAGUUGUUCCCUGUGGUUGACUGAACUGCUGUUGCUGUCCACAUUCCACCCUGACCCAUUCCCUGCUUGCGCCUAGGUGGAAUUCUCGGGUGCCAA	0.306
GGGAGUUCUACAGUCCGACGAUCCGCUCCGUUUGGGGUGACCUGGAACGCCUCUUCUCCCAGCUCCCUCCAGCCAUCAGCAGCCUCUUGUCAAGCUUCUGCCUCGCCCCAGUCUAUCCCCAACCCCAAAUCAAUGGAAUUCUCGGGUGCCAA	0.536

Study 4 — target: CEBPD, bZIP domain (human); technique: DHFR protein complementation; sample: yeast; reference: wild-type JUN-FOS pair; reading: higher = stronger binding
Notes: single substitutions, most at no-binding floor
Starting sequence: JUN, bZIP domain (human); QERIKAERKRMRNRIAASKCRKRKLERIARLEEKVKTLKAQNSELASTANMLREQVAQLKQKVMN; partner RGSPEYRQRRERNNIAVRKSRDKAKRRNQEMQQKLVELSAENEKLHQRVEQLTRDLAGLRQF
Change	binding fitness [natural log]
A49Q	-1.41
M51T	-1.35
L31A	-1.42
K34G	-1.46
V56S	-1.5
S47W	-1.48
A57H	-1.22
R53T	-1.33
K36I	-1.33
E32N	-1.33
V56H	-1.5
R53G	-1.35
L31D	-1.45
A40D	-1.25
A57V	-1.41
A46E	-1.1
R53L	-1.46

Repeated from above (study 2):
Molecule	enrichment score
RQVRRDLFAF	-0.517
ATNSSHTDAHEILVSD	0.805
HPESPPRKRLKSKGSD	5.45
NESHLDKEHDAVEVAD	0.311
KRCATPVIIDEILPSK	0.192
GTPKRCLDLSNLSSGE	0.148
